{"data": "Published values from different studies", "Kir3.1/Kir3.4": "Kir3.1/Kir3.4 (Homo sapiens, UniProt P48544+P48549)", "CDC28": "Cyclin-dependent kinase 1 (CDC28, Candida albicans, UniProt P43063)", "AKR1B1": "Aldo-keto reductase family 1 member B1 (AKR1B1, Homo sapiens, UniProt P15121)", "pyrD": "Dihydroorotate dehydrogenase (quinone) (pyrD, Acinetobacter baumannii, UniProt B7GZW7)", "T1": "aptamer DNA; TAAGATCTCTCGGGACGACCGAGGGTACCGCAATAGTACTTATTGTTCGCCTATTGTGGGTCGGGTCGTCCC", "note": "Protocols differ between the studies behind these lines. Several values in a cell are separate wells, animals, samples, runs or records. Numbers after ± are the reported error.", "chain of UniProt O76090 (whole entry, looked up)": "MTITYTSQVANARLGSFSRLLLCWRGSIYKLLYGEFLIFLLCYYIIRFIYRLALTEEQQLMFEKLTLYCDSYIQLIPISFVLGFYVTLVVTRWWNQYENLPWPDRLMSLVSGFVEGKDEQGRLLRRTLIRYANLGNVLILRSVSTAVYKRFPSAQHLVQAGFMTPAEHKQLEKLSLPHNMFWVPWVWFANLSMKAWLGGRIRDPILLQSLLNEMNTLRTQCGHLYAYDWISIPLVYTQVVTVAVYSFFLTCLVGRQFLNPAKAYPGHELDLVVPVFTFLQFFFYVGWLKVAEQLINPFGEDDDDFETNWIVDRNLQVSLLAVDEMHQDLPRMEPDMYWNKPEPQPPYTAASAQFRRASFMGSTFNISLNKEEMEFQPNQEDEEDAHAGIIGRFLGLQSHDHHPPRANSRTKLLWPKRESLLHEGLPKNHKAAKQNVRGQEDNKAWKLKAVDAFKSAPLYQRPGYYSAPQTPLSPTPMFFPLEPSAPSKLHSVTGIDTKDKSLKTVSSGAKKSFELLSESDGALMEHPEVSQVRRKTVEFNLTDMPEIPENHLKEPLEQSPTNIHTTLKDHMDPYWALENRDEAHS", "chain of UniProt P51575 (whole entry, unmodified, looked up)": "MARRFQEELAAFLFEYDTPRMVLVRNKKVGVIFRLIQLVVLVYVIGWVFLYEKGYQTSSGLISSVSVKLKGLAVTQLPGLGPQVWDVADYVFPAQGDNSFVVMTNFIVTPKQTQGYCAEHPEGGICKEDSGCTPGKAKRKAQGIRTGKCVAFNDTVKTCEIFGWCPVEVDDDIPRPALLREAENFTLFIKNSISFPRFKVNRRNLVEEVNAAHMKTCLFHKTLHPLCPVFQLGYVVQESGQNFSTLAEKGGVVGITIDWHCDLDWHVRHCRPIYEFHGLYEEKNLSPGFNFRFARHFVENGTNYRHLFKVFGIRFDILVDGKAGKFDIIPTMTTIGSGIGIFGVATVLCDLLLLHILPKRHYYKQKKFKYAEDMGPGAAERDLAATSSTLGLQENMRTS", "chain of UniProt Q64663 (whole entry, unmodified, looked up)": "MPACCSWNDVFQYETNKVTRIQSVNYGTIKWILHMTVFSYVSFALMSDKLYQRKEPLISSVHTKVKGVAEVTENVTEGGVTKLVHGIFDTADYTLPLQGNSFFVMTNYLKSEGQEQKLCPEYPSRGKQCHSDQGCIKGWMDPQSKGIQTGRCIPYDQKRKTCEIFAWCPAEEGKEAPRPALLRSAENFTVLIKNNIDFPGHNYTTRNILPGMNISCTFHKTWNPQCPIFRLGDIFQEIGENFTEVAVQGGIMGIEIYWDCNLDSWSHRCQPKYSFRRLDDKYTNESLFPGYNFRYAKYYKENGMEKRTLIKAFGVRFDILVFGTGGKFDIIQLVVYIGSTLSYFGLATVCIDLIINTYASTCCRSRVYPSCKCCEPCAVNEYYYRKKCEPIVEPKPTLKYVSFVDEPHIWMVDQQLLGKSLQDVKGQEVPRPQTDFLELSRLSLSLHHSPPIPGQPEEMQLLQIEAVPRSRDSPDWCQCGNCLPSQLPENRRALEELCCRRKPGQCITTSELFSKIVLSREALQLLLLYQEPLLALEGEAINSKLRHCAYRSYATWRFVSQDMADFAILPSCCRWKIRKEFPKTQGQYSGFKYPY", "chain of UniProt Q16774 (whole entry, unmodified, looked up)": "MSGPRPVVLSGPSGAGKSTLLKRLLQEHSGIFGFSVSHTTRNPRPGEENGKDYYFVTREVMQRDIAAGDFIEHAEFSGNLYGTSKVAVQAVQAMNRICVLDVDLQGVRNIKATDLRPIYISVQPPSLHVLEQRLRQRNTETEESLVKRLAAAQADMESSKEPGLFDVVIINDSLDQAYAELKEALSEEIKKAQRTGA", "chain of UniProt Q13936 (whole entry, looked up)": "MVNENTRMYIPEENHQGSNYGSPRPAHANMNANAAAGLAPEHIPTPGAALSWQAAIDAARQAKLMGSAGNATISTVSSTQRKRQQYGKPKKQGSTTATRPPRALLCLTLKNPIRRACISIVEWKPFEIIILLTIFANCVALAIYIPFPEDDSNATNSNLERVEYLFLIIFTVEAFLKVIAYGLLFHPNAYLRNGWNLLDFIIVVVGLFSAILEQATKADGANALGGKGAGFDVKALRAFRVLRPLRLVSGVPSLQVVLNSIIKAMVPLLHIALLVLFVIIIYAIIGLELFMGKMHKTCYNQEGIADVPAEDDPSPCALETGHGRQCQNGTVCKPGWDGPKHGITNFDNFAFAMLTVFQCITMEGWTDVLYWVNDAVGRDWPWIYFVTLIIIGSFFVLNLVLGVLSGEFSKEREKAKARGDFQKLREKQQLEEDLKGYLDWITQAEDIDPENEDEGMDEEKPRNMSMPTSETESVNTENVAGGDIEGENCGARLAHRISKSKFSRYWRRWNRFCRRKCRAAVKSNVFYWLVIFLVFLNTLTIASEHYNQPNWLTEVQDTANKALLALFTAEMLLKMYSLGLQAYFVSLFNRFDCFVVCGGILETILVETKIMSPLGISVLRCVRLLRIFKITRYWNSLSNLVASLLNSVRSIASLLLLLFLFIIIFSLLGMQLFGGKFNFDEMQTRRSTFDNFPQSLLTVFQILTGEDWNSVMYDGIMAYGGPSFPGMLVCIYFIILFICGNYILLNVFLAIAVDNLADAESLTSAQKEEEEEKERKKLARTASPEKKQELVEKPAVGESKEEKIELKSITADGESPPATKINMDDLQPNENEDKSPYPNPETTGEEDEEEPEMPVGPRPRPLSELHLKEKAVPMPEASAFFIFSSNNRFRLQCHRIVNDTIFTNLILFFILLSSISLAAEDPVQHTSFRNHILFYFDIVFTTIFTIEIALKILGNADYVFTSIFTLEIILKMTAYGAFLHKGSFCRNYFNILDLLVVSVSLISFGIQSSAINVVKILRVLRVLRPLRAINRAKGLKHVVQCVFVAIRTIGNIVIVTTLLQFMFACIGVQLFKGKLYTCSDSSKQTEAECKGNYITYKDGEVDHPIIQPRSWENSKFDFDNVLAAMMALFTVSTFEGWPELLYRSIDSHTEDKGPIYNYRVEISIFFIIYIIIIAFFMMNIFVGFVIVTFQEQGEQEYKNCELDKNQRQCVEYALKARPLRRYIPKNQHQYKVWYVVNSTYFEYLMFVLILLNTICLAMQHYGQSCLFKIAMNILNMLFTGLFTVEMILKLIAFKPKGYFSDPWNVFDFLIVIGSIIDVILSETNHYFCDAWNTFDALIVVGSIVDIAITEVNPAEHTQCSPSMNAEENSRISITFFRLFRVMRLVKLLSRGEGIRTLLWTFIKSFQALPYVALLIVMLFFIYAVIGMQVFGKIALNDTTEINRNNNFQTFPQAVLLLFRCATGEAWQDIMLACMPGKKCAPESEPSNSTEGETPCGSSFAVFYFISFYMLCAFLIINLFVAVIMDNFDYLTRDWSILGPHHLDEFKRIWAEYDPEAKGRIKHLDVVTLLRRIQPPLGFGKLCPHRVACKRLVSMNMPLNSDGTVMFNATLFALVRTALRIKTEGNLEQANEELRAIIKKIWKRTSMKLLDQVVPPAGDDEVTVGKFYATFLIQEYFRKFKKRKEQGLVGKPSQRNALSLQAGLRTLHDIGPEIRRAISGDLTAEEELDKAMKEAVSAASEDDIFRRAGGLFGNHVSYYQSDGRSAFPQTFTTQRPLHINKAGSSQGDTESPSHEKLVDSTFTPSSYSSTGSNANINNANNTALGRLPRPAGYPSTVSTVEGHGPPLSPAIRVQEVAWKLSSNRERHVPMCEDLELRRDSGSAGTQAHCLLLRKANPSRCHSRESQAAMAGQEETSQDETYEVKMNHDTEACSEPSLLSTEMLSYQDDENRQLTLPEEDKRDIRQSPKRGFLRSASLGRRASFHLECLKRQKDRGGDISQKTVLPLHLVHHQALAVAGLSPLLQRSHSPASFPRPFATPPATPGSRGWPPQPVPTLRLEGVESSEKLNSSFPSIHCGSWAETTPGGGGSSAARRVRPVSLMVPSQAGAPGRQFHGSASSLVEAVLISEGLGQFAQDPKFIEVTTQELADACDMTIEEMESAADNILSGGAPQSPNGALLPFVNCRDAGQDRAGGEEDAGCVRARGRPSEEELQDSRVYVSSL", "chain of UniProt P43063 (whole entry, looked up)": "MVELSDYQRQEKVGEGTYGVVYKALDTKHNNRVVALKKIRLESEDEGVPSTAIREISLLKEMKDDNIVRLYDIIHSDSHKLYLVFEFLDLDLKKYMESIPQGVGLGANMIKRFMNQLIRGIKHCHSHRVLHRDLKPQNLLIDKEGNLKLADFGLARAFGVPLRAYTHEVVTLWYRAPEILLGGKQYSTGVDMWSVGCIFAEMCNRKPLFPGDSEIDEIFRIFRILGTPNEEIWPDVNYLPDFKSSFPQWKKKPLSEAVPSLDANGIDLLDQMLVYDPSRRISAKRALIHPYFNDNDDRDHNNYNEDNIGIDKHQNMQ", "chain of UniProt P48544 (whole entry, looked up)": "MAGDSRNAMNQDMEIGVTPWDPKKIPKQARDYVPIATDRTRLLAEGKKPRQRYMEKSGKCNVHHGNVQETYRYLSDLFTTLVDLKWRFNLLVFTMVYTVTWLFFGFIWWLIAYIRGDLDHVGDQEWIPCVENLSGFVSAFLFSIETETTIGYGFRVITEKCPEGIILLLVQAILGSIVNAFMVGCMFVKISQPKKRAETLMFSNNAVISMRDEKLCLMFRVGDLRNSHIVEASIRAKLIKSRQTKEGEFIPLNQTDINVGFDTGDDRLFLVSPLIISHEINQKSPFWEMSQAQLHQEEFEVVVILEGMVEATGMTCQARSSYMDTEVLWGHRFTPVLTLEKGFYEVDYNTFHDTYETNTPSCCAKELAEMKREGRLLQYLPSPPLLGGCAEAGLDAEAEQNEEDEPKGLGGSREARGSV"}
{"Structure (SMILES)": "O=c1nc(SCc2cc(F)cc(C(F)(F)F)c2)nc(SCc2csc3ccc(Cl)cc23)[nH]1", "tested on": "TOP2B (Homo sapiens, UniProt Q02880)", "assay": "decatenation", "setting": "31.25 µM, replicate 2", "measurement": "decatenated DNA", "result": "1%"}
{"Structure (SMILES)": "Nc1ncnc2c1ncn2[C@@H]1O[C@H](COP(=O)(O)CP(=O)(O)OP(=O)(O)O)[C@@H](O)[C@H]1O", "tested on": "P2X purinoceptor 1 (P2RX1, Homo sapiens, UniProt P51575, E122A)", "assay": "calcium influx", "setting": "10 µM", "scale": "reference: ionomycin response", "measurement": "calcium influx", "result": "95.2% and 100% and 94.3%"}
{"Structure (SMILES)": "Nc1ccccc1C(=O)C[C@H](N)C(=O)O", "assay": "binding, MIDAS equilibrium dialysis LC-MS", "test system": "A2AR-BRIL thermostabilized", "setting": "concentration not given", "scale": "reference: no-protein control", "measurement": "log2 fold change", "result": -0.136}
{"Structure (SMILES)": "Nc1ncnc2c1ncn2[C@@H]1O[C@H](COP(=O)(O)OP(=O)(O)OP(=O)(O)O)[C@@H](O)[C@H]1O", "tested on": "P2X purinoceptor 7 (P2rx7, Rattus norvegicus, UniProt Q64663, I214A)", "assay": "ion current, agonist, two-electrode voltage clamp", "test system": "Xenopus laevis oocytes", "setting": "11.1 µM", "scale": "reference: highest concentration response", "measurement": "normalized current", "result": "0.0155 and 0.0117 and 0.0215"}
{"Structure (SMILES)": "CC[C@H](C)[C@@H]1NC(=O)[C@H](C)NC(=O)[C@H]([C@@H](C)CC)NC(=O)[C@H](CCC(N)=O)NC(=O)[C@H](C)NC(=O)[C@H](CCCNC(=N)N)NC(=O)[C@H](C(C)C)NC(=O)[C@H](CC(C)C)NC(=O)[C@H](CCC(=O)O)NC(=O)[C@H](CCCNC(=N)N)NC(=O)CNC(=O)[C@@H](NC(=O)[C@H](CC(C)C)NC(=O)[C@H](CCCCN)NC(=O)[C@@H](NC(=O)[C@@H](NC(=O)[C@H](CCC(=O)O)NC(=O)[C@H](CCC(=O)O)NC(=O)[C@H](CCSC)NC(=O)[C@H](Cc2c[nH]c3ccccc23)NC(=O)[C@H](CO)NC(=O)[C@@H](N)CC(=O)O)C(C)C)[C@@H](C)CC)CSSC[C@@H]2NC(=O)[C@@H](NC(=O)[C@H](CCCCN)NC(=O)[C@H](CC(N)=O)NC(=O)[C@H](C)NC(=O)[C@H](CC(C)C)NC(=O)[C@H](C)NC(=O)[C@H](CO)NC(=O)[C@H](Cc3ccc(O)cc3)NC(=O)[C@H](CC(C)C)NC(=O)[C@H](CCC(N)=O)NC(=O)c3ccc(-c4c5ccc(=[N+](C)C)cc-5oc5cc(N(C)C)ccc45)c(C(=O)[O-])c3)CSSC[C@H](NC(=O)CNC(=O)[C@H](C(C)C)NC(=O)[C@H](Cc3c[nH]cn3)NC2=O)C(=O)N[C@@H]([C@@H](C)O)C(=O)N[C@@H](CCCCN)C(=O)N[C@@H](CCCNC(=N)N)C(=O)N[C@@H](CO)C(=O)N[C@@H](CC(C)C)C(=O)N[C@@H](C)C(=O)N[C@@H](CCCNC(=N)N)C(=O)N[C@@H](Cc2ccccc2)C(=O)N[C@H](C(=O)O)CSSC[C@@H](C(=O)NCC(=O)N[C@@H](CCSC)C(=O)N[C@@H](CO)C(=O)N[C@H](C(=O)N[C@@H](Cc2c[nH]c3ccccc23)C(=O)N[C@@H](CO)C(=O)O)[C@@H](C)O)NC1=O", "tested on": "Relaxin receptor 1 (RXFP1, Homo sapiens, UniProt Q9HBX9)", "assay": "NanoBRET", "setting": "concentration not given, infinite dilution", "measurement": "fast dissociation fraction", "result": "25.4%"}
{"Structure (SMILES)": "CCCCCCCCCCc1ccc([C@H]2CC[C@H]([N+](C)(C)CCC)CC2)cc1.[I-]", "tested on": "SPHK2 (Homo sapiens, UniProt Q9NRA0)", "assay": "inhibitor, radiometric flash-plate", "test system": "cell lysate", "setting": "together with: sphingosine 5 µM", "measurement": "Ki/Km ratio", "result": 8.6}
{"Structure (SMILES)": "CC(=O)NCCCC[C@H](NC(=O)[C@H](CC(=O)O)NC(=O)[C@H](CO)NC(C)=O)C(=O)Nc1ccc2c(C)cc(=O)oc2c1", "tested on": "human Y386F mutant enzyme", "assay": "substrate, fluorogenic", "measurement": "Km", "result": "26 ± 9 µM"}
{"Structure (SMILES)": "NS(=O)(=O)NCCNc1nonc1C(=NO)Nc1ccc(F)c(Br)c1", "tested on": "IDO1 (Homo sapiens, UniProt P14902)", "assay": "nanoDSF", "test system": "1% DMSO", "setting": "50 µM, unlabelled protein 2.5 µM, no DTT", "measurement": "inflection temperature", "result": "65.2 ± 0.1 °C"}
{"Structure (SMILES)": "CCc1cc(NC(=O)COc2ccc(Cl)cc2Cl)n(CC(F)(F)F)n1", "tested on": "Kir3.1/Kir3.4", "assay": "thallium flux, activator", "test system": "HEK293", "scale": "reference: standard compound", "measurement": "Emax", "result": "80%"}
{"Structure (SMILES)": "Cc1n[nH]c2ccc(-c3cc(OC[C@@H](N)Cc4ccccc4)cnc3-c3ccoc3)cc12", "tested on": "CDC28", "assay": "kinase binding, competitor, MIB/MS competition, measured: CDC28", "test system": "Candida albicans cell lysate", "setting": "10 µM", "scale": "reference: DMSO", "measurement": "log2 fold change", "result": -0.931}
{"Structure (SMILES)": "Nc1ccc(C(=O)O)cc1", "tested on": "BEST1 (Homo sapiens, UniProt O76090)", "assay": "whole-cell patch clamp", "test system": "HEK293 transiently expressing channel", "setting": "concentration not given, membrane potential -80 mV", "measurement": "current density", "result": "-41.1 pA/pF and -41.6 pA/pF and -84.5 pA/pF and -44 pA/pF and -65 pA/pF and -57.6 pA/pF and -75.9 pA/pF"}
{"Structure (SMILES)": "O=C1S/C(=C\\c2ccc(Cl)cc2)C(=O)N1Cc1nc2ccccc2s1", "tested on": "AKR1B1", "assay": "enzyme activity, inhibitor", "measurement": "Hill slope", "result": -0.488}
{"Structure (SMILES)": "CSCC[C@H](N)C(=O)Nc1ccc2ccccc2c1", "tested on": "rat aminopeptidase III", "assay": "substrate", "measurement": "Km", "result": "5 µM"}
{"Structure (SMILES)": "c1coc(-c2n[nH]cc2-c2ccnc3ccccc23)c1", "tested on": "CDC28", "assay": "kinase binding, MIB/MS competition", "test system": "Candida albicans lysate", "setting": "1 µM", "scale": "reference: DMSO, negative = stronger binding", "measurement": "log2 fold change", "result": -0.29}
{"Structure (SMILES)": "O=C(O)C1CCCNC1 (stereo not shown)", "tested on": "SLC6A6 (Homo sapiens, UniProt P31641, G62A)", "assay": "binding, microscale thermophoresis", "setting": "250 µM, room temperature, together with: 50 nM labelled protein", "scale": "higher = more binding", "measurement": "normalised MST signal", "result": 0.305}
{"Structure (SMILES)": "Cc1cc(Nc2ccc(C(F)(F)F)cc2)n2nc(C(F)(F)F)nc2n1", "tested on": "pyrD", "assay": "enzyme activity, inhibitor, colorimetric HTS, measured: DCIP reduction", "setting": "3 µM", "scale": "direction not given", "measurement": "robust Z-score", "result": 17.3}
{"Structure (SMILES)": "CC(C)C[C@H](N)C(=O)O", "tested on": "snf (Aquifex aeolicus, UniProt O67854)", "assay": "isothermal titration calorimetry", "setting": "concentration not given, pH 7.0, 25 °C", "measurement": "binding stoichiometry", "result": "0.7 ± 0.01 mol/mol LeuT"}
{"Structure (SMILES)": "CCc1cnn2c(NCc3ccc[n+]([O-])c3)cc(N3CCCC[C@H]3CCO)nc12", "tested on": "BRD4 (Homo sapiens, UniProt O60885)", "assay": "19F NMR, measured: tyrosine 97", "setting": "186 µM", "scale": "reference: free protein", "measurement": "chemical shift change", "result": "-0.219 ppm"}
{"Structure (SMILES)": "O=C(Nc1cccc2c(=O)cc(-c3nnn[nH]3)oc12)c1ccc(OCCCCc2ccccc2)cc1", "tested on": "LRRC8A/LRRC8C (Homo sapiens, UniProt Q8IWT6+Q8TDW0, Y124F/Y126F)", "assay": "whole-cell patch clamp", "test system": "HCT116 LRRC8-/- transfected", "setting": "at +100 mV", "measurement": "Hill coefficient", "result": 0.82}
{"Structure (SMILES)": "NC/C(=C\\F)COc1cccc(Cn2c(=S)[nH]c(=O)c3[nH]cnc32)c1", "tested on": "CACNA1C (Homo sapiens, UniProt Q13936)", "assay": "peak ramp current, inhibitor, patch clamp", "test system": "human cells", "setting": "100 µM, pulse 10", "measurement": "inhibition", "result": "44.2% and 24.5%"}
{"Structure (SMILES)": "O=C(Nc1ccc(Cl)c(Br)c1)c1ccc2c(c1)C(=O)NC2=O", "tested on": "MAOB (Homo sapiens, UniProt P27338)", "scale": "reference: IC50 MAO-A over IC50 MAO-B", "measurement": "selectivity ratio", "result": "> 3330"}
{"Structure (SMILES)": "Cc1cc(Nc2ccc3ccccc3c2)n2ccnc2n1", "tested on": "pyrD", "assay": "enzyme activity, inhibitor, colorimetric HTS, measured: DCIP reduction", "setting": "3 µM", "scale": "direction not given", "measurement": "robust Z-score", "result": 21.6}
{"Structure (SMILES)": "CC1=NN(c2ccccc2)C(=O)C1=NNc1ccc(S(N)(=O)=O)cc1", "tested on": "bovine α-glucosidase", "assay": "enzyme activity, inhibitor, glucose oxidase", "setting": "50 µg/mL, together with: maltose", "measurement": "inhibition", "result": "36.7%"}
{"Structure (SMILES)": "O=C1S/C(=C\\c2ccc(Br)cc2)C(=O)N1Cc1nc2ccccc2s1", "tested on": "AKR1B1", "assay": "enzyme activity, inhibitor", "measurement": "log IC50", "result": "2.33 log nM"}
{"Structure (SMILES)": "O=C(COc1cccc(Cl)c1Cl)Nc1cc(C2CCC2)nn1C1CCC(F)(F)CC1", "tested on": "Kir3.1/Kir3.4", "assay": "thallium flux, activator", "test system": "HEK293", "scale": "reference: standard compound", "measurement": "Emax", "result": "< 10%"}
{"Structure (SMILES)": "O=S(=O)(O)C1CCNCC1", "tested on": "SLC6A6 (Homo sapiens, UniProt P31641, Y138A)", "assay": "binding, microscale thermophoresis", "setting": "7.81 µM, room temperature, together with: 50 nM labelled protein", "scale": "higher = more binding", "measurement": "normalised MST signal", "result": -0.0105}
{"Structure (SMILES)": "Nc1nc2c(ncn2[C@@H]2O[C@H](COP(=O)(O)O)[C@@H](O)[C@H]2O)c(=O)[nH]1", "tested on": "GUK1 (Homo sapiens, UniProt Q16774, R44A)", "assay": "enzyme activity, NADH-coupled", "setting": "2000 µM", "measurement": "reaction rate", "result": "-0.648 s⁻¹ and -1.27 s⁻¹ and -0.337 s⁻¹"}
{"Structure (SMILES)": "COc1cc(C(F)(F)F)cc2c(N3CCN4c5ccccc5OC[C@H]4C3)c(C#N)nnc12 (single isomer, unassigned)", "tested on": "Grm7 (Rattus norvegicus, UniProt P35400)", "assay": "positive allosteric modulator", "test system": "cell-based", "setting": "together with: L-AP4 EC20", "scale": "reference: L-AP4 maximum", "measurement": "maximal response", "result": "54%"}
{"Structure (SMILES)": "CN[C@H](CC(C)C)C(=O)N[C@H]1C(=O)N[C@@H](CC(N)=O)C(=O)N[C@H]2C(=O)N[C@H]3C(=O)N[C@H](C(=O)N[C@H](C(=O)O)c4cc(O)cc(O)c4-c4cc3ccc4O)[C@H](O)c3ccc(c(Cl)c3)Oc3cc2cc(c3O[C@@H]2O[C@H](CO)[C@@H](O)[C@H](O)[C@H]2O[C@H]2C[C@](C)(N)[C@H](O)[C@H](C)O2)Oc2ccc(cc2Cl)[C@H]1O", "tested on": "T1, aptamer DNA", "assay": "competitor, fluorescence", "setting": "pH 7.4, MgCl2 10 mM", "measurement": "binding", "result": "binds"}
{"Structure (SMILES)": "NC(N)=O", "assay": "binding, MIDAS equilibrium dialysis LC-MS", "test system": "A2AR-BRIL thermostabilized", "setting": "concentration not given", "scale": "reference: no-protein control", "measurement": "log2 fold change", "result": -0.0838}
{"Structure (SMILES)": "CC1=NOC(=O)C1=NNc1ccc(S(N)(=O)=O)cc1", "tested on": "bovine α-glucosidase", "assay": "enzyme activity, inhibitor, glucose oxidase", "setting": "200 µg/mL, together with: maltose", "measurement": "inhibition", "result": "40.1%"}
